Measurements pooled from the literature.
Numbered parts are unrelated; each lists some results of a single study. Positions count from the first letter of the parent shown.

Series 1 — technique: Sort-seq; item: YFP reporter; sample: E. coli; notes: PhoQ-PhoP variant library; together with: 10 µM Mg2+; reference: high Mg2+ state; direction: higher = stronger signaling
Substance: PhoQ, residues 284 288 289 292 302 303 NLSRDF
target | fold induction
PhoP, residues 12 14 15 18 19 QYCSL (Escherichia coli, UniProt P23836) | 9.49
PhoP, residues 12 14 15 18 19 STHWV (Escherichia coli, UniProt P23836) | 6.71
PhoP, residues 12 14 15 18 19 SHWTV (Escherichia coli, UniProt P23836) | 10.6

Series 2 — target: CCND3, cyclin fold, Cln2 fusion (human); technique: yeast growth competition, sequencing; sample: yeast; notes: weak parent motif; reference: not given; direction: higher = stronger binding
Starting sequence: WEE1 docking peptide (human); HKTFRKLRLFDTP; partner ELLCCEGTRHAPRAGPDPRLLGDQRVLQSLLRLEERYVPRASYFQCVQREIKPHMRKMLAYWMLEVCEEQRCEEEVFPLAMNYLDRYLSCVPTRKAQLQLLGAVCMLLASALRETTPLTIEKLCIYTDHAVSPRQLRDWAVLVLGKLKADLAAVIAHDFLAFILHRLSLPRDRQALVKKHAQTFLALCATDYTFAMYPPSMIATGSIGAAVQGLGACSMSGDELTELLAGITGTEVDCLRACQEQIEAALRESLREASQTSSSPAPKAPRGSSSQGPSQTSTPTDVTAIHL
Change | normalised enrichment score
HGTFRKLRLFDTP [K2G] | 0.143
HKTFRKLVLFDTP [R8V] | 0.122
RKTFRKLRLFDTP [H1R] | 0.0923
HKTFRKLRYFDTP [L9Y] | 0.123
HKTFRKYRLFDTP [L7Y] | 0.156
SKTFRKLRLFDTP [H1S] | 0.266
HKTFMKLRLFDTP [R5M] | 0.0746
HLTFRKLRLFDTP [K2L] | 0.118
HKTFRKNRLFDTP [L7N] | 0.245
HKHFRKLRLFDTP [T3H] | 0.204
HKTKRKLRLFDTP [F4K] | 0.155
HFTFRKLRLFDTP [K2F] | 0.00226
HKTMRKLRLFDTP [F4M] | 0.199
HKTFRKLRLFDTD [P13D] | 0.19
HKTFRKLRLFDCP [T12C] | 0.136
HKTFRGLRLFDTP [K6G] | 0.11

Series 3 — technique: RNA Bind-n-Seq; form: RNA; sample: in vitro; concentration: 1 µM; notes: whole 134-nt RNA, ends assumed; together with: 150 mM KCl; reference: input library; direction: higher = stronger binding
Target: Ras GTPase-activating protein-binding protein 1, C-terminal RGG region (G3BP1, Homo sapiens, UniProt Q13283)
Chain of UniProt Q13283 (whole entry, looked up): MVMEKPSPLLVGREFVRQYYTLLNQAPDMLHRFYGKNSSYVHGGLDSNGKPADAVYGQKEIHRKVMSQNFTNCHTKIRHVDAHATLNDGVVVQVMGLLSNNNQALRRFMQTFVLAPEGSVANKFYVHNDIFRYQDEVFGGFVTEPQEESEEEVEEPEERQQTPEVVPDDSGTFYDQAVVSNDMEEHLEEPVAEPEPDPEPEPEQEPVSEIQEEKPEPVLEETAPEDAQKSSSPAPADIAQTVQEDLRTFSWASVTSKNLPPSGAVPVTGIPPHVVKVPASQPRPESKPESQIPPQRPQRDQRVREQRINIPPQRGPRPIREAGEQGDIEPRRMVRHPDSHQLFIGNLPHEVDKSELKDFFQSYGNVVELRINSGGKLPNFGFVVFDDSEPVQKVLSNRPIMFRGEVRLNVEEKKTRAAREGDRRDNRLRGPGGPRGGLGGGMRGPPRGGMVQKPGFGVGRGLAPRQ
Sequence | log2 enrichment
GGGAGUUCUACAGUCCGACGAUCUGGGAGGUGGAUUUUGUUUAUUUUUUGAGCUCAUUUCCAGGGGUGGGAAUUUUUUUUUAAUAUGUGUCAUGAAUAAAGUUGUUUUUGAAAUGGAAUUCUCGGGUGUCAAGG | 3.73
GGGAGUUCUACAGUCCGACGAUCCACAGACAACAAACACCCACACAGACACAGAGGGAAGGGGUUGGGAUGGGGACAGGGUGCACAGCAGGGCGGGGUAGGACCCCAGCCCCUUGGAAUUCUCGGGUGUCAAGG | -0.501
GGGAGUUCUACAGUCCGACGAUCCACAGACAACACGCACCCACACAGACACAGAGGGAAGGGGUUGGGAUGGGGACAGGGUGCACAGCAGCGCGGGGUAGGACCCCAGCCCCUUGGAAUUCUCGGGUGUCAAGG | -0.287
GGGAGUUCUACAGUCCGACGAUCCACAGACAACACGAACCCACACAGACACAGAGGGAAGGGGUUGGGAUGGGGACAGGGUGCACAGCAGGGCGGGGUAGGACCCCAGCCCCUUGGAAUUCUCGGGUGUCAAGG | 0.361
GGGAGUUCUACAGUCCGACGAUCCAAGUCCUGUGCUACACAUCGUAUGUACCGAAUCGGGGAAAGGGGAAAGGAAAGGGAAAGUAUUAUGUUACGCCGUUCGGAUCUGCACUUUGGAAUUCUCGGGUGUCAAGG | -1.23
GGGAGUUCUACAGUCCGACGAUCUGGCCCUGGUGGCAUGCGGGGAGGCAGAGGUGGCCUCAUGGAUCGUGGUGGUCCCGGUGGAAUGUUCAGAGGUGGCCGUGGUGGAGACAGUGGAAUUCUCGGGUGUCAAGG | 2.36
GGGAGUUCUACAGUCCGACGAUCCACAGACAACACGCACCCACACAGACACAGAGGGAAGGGGUUGGGAUGGGGACAGGGUGCACAGCAGGGCGGGGUAGGACCCCAGCCCUUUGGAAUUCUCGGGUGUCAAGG | -1.08
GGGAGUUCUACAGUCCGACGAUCUCCUGUGCUACACAUCGUAUGUACCGAAUCGGGAAAAAAGGAAAAAAGGGGAAAAAAGGAAAGUAUUAUGUUACGCCGUUCGGAUCUGCAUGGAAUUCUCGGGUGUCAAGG | -1.56
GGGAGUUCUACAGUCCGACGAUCCACAGACAACACGCACCCACACCGACACAGAGGGAAGGGGUUGGGAUGGGGACAGGGUGCACAGCAGGGCGGGGUAGGACCCCAGCCCCUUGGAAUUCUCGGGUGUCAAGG | -0.59
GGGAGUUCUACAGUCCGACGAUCGUCCUGUGCUACACAUCGUAUGUACCGAAUCAAAUUUUUAAACCCCCCCAAACCCAAAAAAGUAUUAUGUUACGCCGUUCGGAUCUGCACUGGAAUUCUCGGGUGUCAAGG | -0.73
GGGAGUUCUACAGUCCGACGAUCGUCCUGUGCUACACAUCGUAUGUACCGAAUCAAACCCCCAAACCCCCCCAAAUUUAAAAAAGUAUUAUGUUACGCCGUUCGGAUCUGCACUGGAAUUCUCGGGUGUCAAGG | -0.826
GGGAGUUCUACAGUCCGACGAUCCCUGUGCUACACAUCGUAUGUACCGAAUCGGGGUUUUUUUGGGGAAAGGGGUUUUUGGGGAAAGUAUUAUGUUACGCCGUUCGGAUCUGCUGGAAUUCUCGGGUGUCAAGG | 0.75
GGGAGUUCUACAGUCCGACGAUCAGUCCUGUGCUACACAUCGUAUGUACCGAAUCGGGGAGGGGAAAAAAAGGGGAGGGGAAAGUAUUAUGUUACGCCGUUCGGAUCUGCACUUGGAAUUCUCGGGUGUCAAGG | 2.39
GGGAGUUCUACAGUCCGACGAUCACCAUGCAGGUGGGCAUCUUUGGGGAGUGGGGCAAGGGGGGGAUAGGGAGGGGGGUAACACUUUGGGAACAGGUGGUCCCAGGUCGUUUCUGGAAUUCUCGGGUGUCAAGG | -1.09

Series 4 — technique: DHFR PCA, deep sequencing; sample: yeast; together with: (+)-ABA 1.4 µM; reference: wild-type fitted maximum; direction: higher = stronger binding
Target: ABI1, truncated, D143A, DHFR fusion (Arabidopsis thaliana)
Notes: methotrexate growth selection, single substitutions
Starting sequence: PYL1, truncated, DHFR fusion (Arabidopsis thaliana); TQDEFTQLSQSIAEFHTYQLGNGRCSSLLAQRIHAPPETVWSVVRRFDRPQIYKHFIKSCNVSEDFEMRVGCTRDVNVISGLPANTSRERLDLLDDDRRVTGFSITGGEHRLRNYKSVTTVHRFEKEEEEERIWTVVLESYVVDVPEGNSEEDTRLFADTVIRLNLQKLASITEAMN
Change | relative binding score
E127I | 51.1%
D48K | -8.53%
A158T | 63.7%
V142S | 41%
T119K | -2.27%
R74G | 4.11%
K54A | 4.86%
D3P | 47.7%
Y53C | 3.19%
N177H | 74.4%
S27T | 22.5%
H55N | 57.2%
F103L | 4.43%
L91E | -15.8%

A few entries again (series 3):
Sequence | log2 enrichment
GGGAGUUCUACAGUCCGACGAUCUGGGAGGUGGAUUUUGUUUAUUUUUUGAGCUCAUUUCCAGGGGUGGGAAUUUUUUUUUAAUAUGUGUCAUGAAUAAAGUUGUUUUUGAAAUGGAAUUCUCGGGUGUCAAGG | 3.73
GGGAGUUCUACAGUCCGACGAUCCAAGUCCUGUGCUACACAUCGUAUGUACCGAAUCGGGGAAAGGGGAAAGGAAAGGGAAAGUAUUAUGUUACGCCGUUCGGAUCUGCACUUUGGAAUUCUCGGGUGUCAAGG | -1.23
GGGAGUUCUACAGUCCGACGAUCACCAUGCAGGUGGGCAUCUUUGGGGAGUGGGGCAAGGGGGGGAUAGGGAGGGGGGUAACACUUUGGGAACAGGUGGUCCCAGGUCGUUUCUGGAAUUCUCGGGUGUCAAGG | -1.09
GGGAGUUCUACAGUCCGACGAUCAGUCCUGUGCUACACAUCGUAUGUACCGAAUCGGGGAGGGGAAAAAAAGGGGAGGGGAAAGUAUUAUGUUACGCCGUUCGGAUCUGCACUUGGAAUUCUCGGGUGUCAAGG | 2.39
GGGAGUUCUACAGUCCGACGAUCCACAGACAACACGAACCCACACAGACACAGAGGGAAGGGGUUGGGAUGGGGACAGGGUGCACAGCAGGGCGGGGUAGGACCCCAGCCCCUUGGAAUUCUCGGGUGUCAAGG | 0.361
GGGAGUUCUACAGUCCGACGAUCGUCCUGUGCUACACAUCGUAUGUACCGAAUCAAACCCCCAAACCCCCCCAAAUUUAAAAAAGUAUUAUGUUACGCCGUUCGGAUCUGCACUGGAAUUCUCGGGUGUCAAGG | -0.826
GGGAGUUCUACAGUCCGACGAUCCACAGACAACACGCACCCACACCGACACAGAGGGAAGGGGUUGGGAUGGGGACAGGGUGCACAGCAGGGCGGGGUAGGACCCCAGCCCCUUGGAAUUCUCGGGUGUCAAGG | -0.59
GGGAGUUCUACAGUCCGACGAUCCACAGACAACACGCACCCACACAGACACAGAGGGAAGGGGUUGGGAUGGGGACAGGGUGCACAGCAGCGCGGGGUAGGACCCCAGCCCCUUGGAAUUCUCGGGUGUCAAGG | -0.287
